Results of several laboratories.
Numbered parts are unrelated; each lists some results of a single study. Substitutions count along the parent as printed.

Block 1 — method: protein-binding microarray; molecule type: double-stranded DNA, one strand shown; matrix: in vitro; tested at: not given; reading: higher = stronger binding
Target: Protein C-ets-1 (ETS1, Homo sapiens, UniProt P14921, residues 1-441, K379A, full length assumed)
Sequence of UniProt P14921 (whole entry, unmodified, looked up): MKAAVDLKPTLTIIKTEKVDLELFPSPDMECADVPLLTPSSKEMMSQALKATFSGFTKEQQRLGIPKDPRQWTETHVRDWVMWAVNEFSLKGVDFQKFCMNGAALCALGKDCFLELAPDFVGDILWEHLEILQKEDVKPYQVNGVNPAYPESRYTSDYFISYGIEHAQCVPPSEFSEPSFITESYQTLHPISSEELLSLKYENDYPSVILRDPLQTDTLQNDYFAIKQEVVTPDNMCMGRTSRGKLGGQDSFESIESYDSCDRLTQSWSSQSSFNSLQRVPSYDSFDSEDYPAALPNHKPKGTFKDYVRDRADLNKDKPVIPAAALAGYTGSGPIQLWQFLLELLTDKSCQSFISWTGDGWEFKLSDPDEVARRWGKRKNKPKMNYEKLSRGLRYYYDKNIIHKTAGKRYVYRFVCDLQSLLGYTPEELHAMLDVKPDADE
Notes: k-mer, scored over probes, only values ≥0.25
Strand	E-score
ATTACCGG	0.373
TATACACA	0.271
GCGCCGCC	0.306
CGTCGGCC	0.306
TGGTAAAA	0.273
AACGACAC	0.293
CGTTATTA	0.307
CCGCCGGC	0.345

Block 2 — target: CEP164, C-terminal peptide (human); method: DHFR complementation, deep sequencing; matrix: yeast; relative to: wild type; reading: higher = weaker binding
Notes: single substitutions, model-inferred values
Starting sequence: PDZK1, PDZ domain 2 (human); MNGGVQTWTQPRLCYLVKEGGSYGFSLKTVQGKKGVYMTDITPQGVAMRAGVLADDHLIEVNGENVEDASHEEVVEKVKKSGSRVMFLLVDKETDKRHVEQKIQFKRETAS; partner HNRVKVYRF
Variant	binding free energy change [kcal/mol]
S83R	-0.0849
V78Y	2.17
L53P	0.951
F25M	1.01
Q10I	0.322
I59H	1.18
F87H	1.54
T42Q	0.16

Other studies, line by line — CCND1: CCND1, cyclin fold, Cln2 fusion (human)
OGT: UDP-N-acetylglucosamine--peptide N-acetylglucosaminyltransferase 110 kDa subunit (OGT, Homo sapiens, UniProt O15294)
Sequence of UniProt O15294 (whole entry, looked up): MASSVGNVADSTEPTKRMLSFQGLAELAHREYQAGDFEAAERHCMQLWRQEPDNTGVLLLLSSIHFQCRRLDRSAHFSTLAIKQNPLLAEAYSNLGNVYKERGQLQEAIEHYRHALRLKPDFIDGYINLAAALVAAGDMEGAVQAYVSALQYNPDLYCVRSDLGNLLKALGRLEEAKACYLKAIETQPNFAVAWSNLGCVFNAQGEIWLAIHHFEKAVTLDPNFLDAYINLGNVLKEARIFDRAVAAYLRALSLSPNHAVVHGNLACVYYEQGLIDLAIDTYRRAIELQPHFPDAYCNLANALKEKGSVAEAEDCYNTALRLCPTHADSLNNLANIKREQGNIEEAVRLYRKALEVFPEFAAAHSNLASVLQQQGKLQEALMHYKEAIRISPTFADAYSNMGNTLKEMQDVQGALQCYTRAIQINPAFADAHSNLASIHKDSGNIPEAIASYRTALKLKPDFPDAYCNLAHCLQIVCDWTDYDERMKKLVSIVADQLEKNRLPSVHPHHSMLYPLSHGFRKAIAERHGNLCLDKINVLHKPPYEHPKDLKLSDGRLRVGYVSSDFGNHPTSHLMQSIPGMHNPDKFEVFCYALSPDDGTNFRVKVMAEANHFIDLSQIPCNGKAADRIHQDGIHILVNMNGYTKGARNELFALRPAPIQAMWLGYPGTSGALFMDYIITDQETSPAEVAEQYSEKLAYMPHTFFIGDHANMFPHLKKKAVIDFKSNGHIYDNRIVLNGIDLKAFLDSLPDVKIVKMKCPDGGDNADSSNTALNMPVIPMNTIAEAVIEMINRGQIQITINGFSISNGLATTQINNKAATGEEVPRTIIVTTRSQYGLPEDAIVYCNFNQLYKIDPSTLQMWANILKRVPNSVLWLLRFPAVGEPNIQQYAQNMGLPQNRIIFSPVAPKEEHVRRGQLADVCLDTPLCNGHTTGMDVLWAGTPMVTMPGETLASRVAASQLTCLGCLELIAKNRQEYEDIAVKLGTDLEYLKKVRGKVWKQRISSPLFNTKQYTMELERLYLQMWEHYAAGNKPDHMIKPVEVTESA
P1: viral docking peptide; YKVKRRLVFGADD; partner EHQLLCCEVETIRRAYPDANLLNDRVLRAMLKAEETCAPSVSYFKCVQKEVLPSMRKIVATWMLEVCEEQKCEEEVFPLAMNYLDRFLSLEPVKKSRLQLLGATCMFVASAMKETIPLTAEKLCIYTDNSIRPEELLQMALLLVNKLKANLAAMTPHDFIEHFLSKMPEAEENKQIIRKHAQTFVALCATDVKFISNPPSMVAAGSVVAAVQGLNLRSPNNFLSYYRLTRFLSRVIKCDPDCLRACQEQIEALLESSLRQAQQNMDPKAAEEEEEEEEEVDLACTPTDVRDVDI
Molecule	tested on	assay	test system	setting	scale	quantity	result
GPRC5C (Homo sapiens, UniProt Q9NQ84)	UBA2 (Homo sapiens, UniProt Q9UBT2)	cross-linking MS	cell fractions	with: DSSO		cross-linked residues	K329 to K236
DWHTDHWQSDHVHVH	OGT	binding, phage display NGS	peptide	concentration not given, normalized abundance	relative to: input library	enrichment fold change	4.71
P1 A11P	CCND1	yeast growth competition, sequencing	yeast	strong parent motif	relative to: not given, higher = stronger binding	normalised enrichment score	3.16
QAHRWPFHFKQHSFW	OGT	binding, phage display NGS	peptide	concentration not given, normalized abundance	relative to: input library	enrichment fold change	11.7
P1 R5P	CCND1	yeast growth competition, sequencing	yeast	strong parent motif	relative to: not given, higher = stronger binding	normalised enrichment score	0.352
RRP9 (Homo sapiens, UniProt O43818)	NGDN (Homo sapiens, UniProt Q8NEJ9)	cross-linking MS	cell fractions	with: DSSO		cross-linked residues	K97 to K210
SAERHMHWPWNHRHS	OGT	binding, phage display NGS	peptide	concentration not given, normalized abundance	relative to: input library	enrichment fold change	6.56

Some of these lines once more (block 2):
Variant	binding free energy change [kcal/mol]
Q10I	0.322
I59H	1.18
